Published values of several laboratories.
Each line is one published result; not all experiments were run side by side.
Organism: Staphylococcus aureus

SMILES	assay	system	conditions	MIC
CC[C@H](C)[C@H](NC(=O)[C@@H](CCCNC(=N)N)NC(=O)[C@H](CCCNC(=N)N)NC(=O)[C@@H]1CCCN1C(=O)[C@@H]1CCCN1C(=O)[C@H](CCCCN)NC(=O)[C@@H]1CCCN1C(=O)[C@H](CCCNC(=N)N)NC(=O)[C@@H]1CCCN1C(=O)[C@H](CC(C)C)NC(=O)[C@H](Cc1ccc(O)cc1)NC(=O)[C@@H]1CCCN1C(=O)[C@@H]1CCCN1C(=O)[C@H](CCCCN)NC(=O)[C@H](CC(=O)O)NC(=O)[C@@H](N)C(C)C)C(=O)N[C@@H](Cc1ccc(O)cc1)C(=O)N[C@@H](CC(N)=O)C(=O)N[C@H](CCCNC(=N)N)C(N)=O	broth microdilution	DSM 6247	18 h, 37 °C, 25% MHB2	> 128 µg/mL
CCCCCCCCCCCC[N+](C)(C)CCCCOc1cc(OCCCC[N+](C)(C)CCCCCCCCCCCC)cc(OCCCC[N+](C)(C)CCCCCCCCCCCC)c1.[Br-].[Br-].[Br-]		HA-MRSA ATCC 33591		4 µM
COc1cc(C(=O)O)ccc1NC(=O)c1ccc(NC(=O)c2ccc(NC(=O)[C@H](Cc3c[nH]nn3)NC(=O)c3ccc(NC(=O)/C(C)=C/c4ccc(O)cc4)cc3)cc2)c(OC)c1	broth microdilution	ciprofloxacin-resistant		8 µg/mL
CC[C@H]1OC(=O)[C@H](C)[C@@H](OC(=O)Cc2c(F)cccc2F)[C@H](C)[C@@H](O[C@@H]2O[C@H](C)C[C@H](N(C)C)[C@H]2O)[C@](C)(OC)C[C@@H](C)C(=O)[C@H](C)[C@@H](O)[C@]1(C)O		DSM 20231 MSSA		1 µg/mL
CCCCCCn1cc[n+](CCCCOc2cc(OCCCC[n+]3ccn(CCCCCC)c3)cc(OCCCC[n+]3ccn(CCCCCC)c3)c2)c1.[Br-].[Br-].[Br-]		SH1000 MSSA		2 µM
CC[C@H]1OC(=O)[C@H](C)[C@@H](O[C@H]2C[C@@](C)(OC)[C@@H](O)[C@H](C)O2)[C@H](C)[C@@H](O[C@@H]2O[C@H](C)C[C@H](N(C)C)[C@H]2O)[C@](C)(OC)C[C@@H](C)C(=O)[C@H](C)[C@@H](O)[C@]1(C)O	microbial growth	BAA976		16 µg/mL
CC[C@H](C)[C@H](N)C1=N[C@H](C(=O)N[C@@H](CC(C)C)C(=O)N[C@H](CCC(=O)O)C(=O)N[C@H](C(=O)N[C@H]2CCCCNC(=O)[C@H](CC(N)=O)NC(=O)[C@@H](CC(=O)O)NC(=O)[C@H](Cc3c[nH]cn3)NC(=O)[C@@H](Cc3ccccc3)NC(=O)[C@H]([C@@H](C)CC)NC(=O)[C@@H](CCCN)NC2=O)[C@@H](C)CC)CS1		USA300 MRSA	together with: ZnSO4 0.3 mM	2 µg/mL
C/C(=C\c1ccc(O)cc1)C(=O)Nc1ccc(C(=O)N[C@@H](Cc2c[nH]nn2)C(=O)Nc2ccc(C(=O)Nc3ccc(C(=O)Nc4ccc(C(=O)O)cc4)cc3)cc2)cc1	broth microdilution	ciprofloxacin-resistant		32 µg/mL
CC[C@H](C)[C@H](NC(=O)[C@H](CCC(N)=O)NC(=O)[C@H](Cc1ccccc1)NC(=O)[C@H](CC(N)=O)NC(=O)[C@H](CCCCN)NC(=O)[C@H](CC(C)C)NC(=O)[C@H](CCCNC(=N)N)NC(=O)[C@H](CCCCN)NC(=O)[C@H](CCCCN)NC(=O)[C@@H](NC(=O)[C@H](CO)NC(=O)[C@H](CCCCN)NC(=O)CNC(=O)[C@H](CC(C)C)NC(=O)[C@H](CCCCN)NC(=O)[C@H](CCCCN)NC(=O)[C@H](CC(C)C)NC(=O)[C@H](CCCCN)NC(=O)[C@H](CCCCN)NC(=O)[C@H](CCCNC(=N)N)NC(=O)[C@H](CC(C)C)NC(=O)CNC(=O)[C@@H](N)CCCNC(=N)N)[C@@H](C)CC)C(=O)NCC(=O)N[C@@H](Cc1ccccc1)C(=O)N[C@@H](CO)C(=O)N[C@H](C(=O)N1CCC[C@H]1C(=O)N[C@@H](Cc1ccccc1)C(=O)N[C@@H](C)C(=O)NCC(=O)O)C(C)C	broth microdilution	ATCC 29213	16 h, 37 °C, cation-adjusted Mueller-Hinton broth	128 µg/mL
CCCCCCCCn1cc[n+](CCCCCCCCCCOc2cc(OCCCCCCCCCC[n+]3ccn(CCCCCCCC)c3)cc(OCCCCCCCCCC[n+]3ccn(CCCCCCCC)c3)c2)c1.[Br-].[Br-].[Br-]		HA-MRSA ATCC 33591		32 µM
O=[N+]([O-])c1cc(Cl)c2cccnc2c1O	microbial growth, broth dilution	ATCC29213		4 µg/mL
CCCCCCCCCCCC[N+](C)(C)CCCCCCCCOc1cc(OCCCCCCCC[N+](C)(C)CCCCCCCCCCCC)cc(OCCCCCCCC[N+](C)(C)CCCCCCCCCCCC)c1.[Br-].[Br-].[Br-]		SH1000 MSSA		8 µM
CN[C@H](CC(C)C)C(=O)N[C@H]1C(=O)N[C@@H](CC(N)=O)C(=O)N[C@H]2C(=O)N[C@H]3C(=O)N[C@H](C(=O)N[C@H](C(=O)N[C@@H](CCCNC(=N)N)C(N)=O)c4cc(O)cc(O)c4-c4cc3ccc4O)[C@H](O)c3ccc(c(Cl)c3)Oc3cc2cc(c3O[C@@H]2O[C@H](CO)[C@@H](O)[C@H](O)[C@H]2O[C@H]2C[C@](C)(NCc3ccc(OCc4cn(CC(=O)N[C@H](C(=O)N[C@@H](CCN)C(=O)N[C@H]5CCNC(=O)[C@H]([C@@H](C)O)NC(=O)[C@H](CCN)NC(=O)[C@H](CCN)NC(=O)[C@H](CC(C)C)NC(=O)[C@@H](CC(C)C)NC(=O)[C@H](CCN)NC5=O)[C@@H](C)O)nn4)c(OC)c3)[C@H](O)[C@H](C)O2)Oc2ccc(cc2Cl)[C@H]1O	broth microdilution	MRSA USA300, cation-adjusted Mueller-Hinton broth	20 to 24 h, 37 °C, 0.002% polysorbate 80	1 µg/mL
CCCCCCCCCCCC(=O)Oc1c(C)c(OC)c2c(c1C)OC(=O)[C@@H](CCCCCCCCCC)[C@]2(O)/C=C/c1ccccc1 (relative stereo)	microbial growth, broth dilution	ATCC25923		1250 µg/mL
CCCCCCCC[N+](C)(C)CCCCCCCCOc1cc(OCCCCCCCC[N+](C)(C)CCCCCCCC)cc(OCCCCCCCC[N+](C)(C)CCCCCCCC)c1.[Br-].[Br-].[Br-]		HA-MRSA ATCC 33591		1 µM
C=C1CN(C(=N)N)CC2Nc3c(F)cc(Br)cc3C12CCNS(=O)(=O)c1ccc(Cl)cc1.O=C(O)C(F)(F)F (stereo not shown)		NRS-384, community-acquired MRSA		2 µg/mL
CC[C@H]1OC(=O)[C@H](C)[C@@H](OC(=O)CC2CCCCC2)[C@H](C)[C@@H](O[C@@H]2O[C@H](C)C[C@H](N(C)C)[C@H]2O)[C@](C)(OC)C[C@@H](C)C(=O)[C@H](C)[C@@H](O)[C@]1(C)O		DSM 20231 MSSA		4 µg/mL

SMILES	assay	system	conditions	MIC
COc1cc(C(=O)Nc2ccc(C(=O)O)c(O)c2)ccc1NC(=O)c1ccc(NC(=O)[C@H](Cc2c[nH]nn2)NC(=O)c2ccc(NC(=O)/C(C)=C/c3ccc(O)cc3)cc2)cc1	broth microdilution	ciprofloxacin-resistant		8 µg/mL
CC[C@H](C)[C@@H]1NC(=O)[C@H](CCC(=O)O)NC(=O)[C@@H]2CSSC[C@@H]3NC(=O)[C@H](Cc4ccc(O)cc4)NC(=O)[C@@H](NC(=O)[C@@H](NC(=O)[C@H](C)N)[C@@H](C)O)CSSC[C@@H](C(=O)N[C@@H](CCCNC(=N)N)C(=O)O)NC(=O)[C@H](CSSC[C@H](NC(=O)[C@H](CCCNC(=N)N)NC(=O)CNC(=O)[C@H]([C@@H](C)O)NC(=O)[C@H](CCCNC(=N)N)NC3=O)C(=O)N[C@@H](C)C(=O)N[C@@H]([C@@H](C)O)C(=O)N[C@@H](CCCNC(=N)N)C(=O)N[C@@H](CCC(=O)O)C(=O)N[C@@H](CO)C(=O)N[C@@H](CC(C)C)C(=O)N[C@@H](CO)C(=O)NCC(=O)N[C@@H](C(C)C)C(=O)N2)NC(=O)[C@H](CC(C)C)NC(=O)[C@H](CCCNC(=N)N)NC(=O)[C@H](Cc2ccc(O)cc2)NC(=O)[C@H](CC(C)C)NC(=O)[C@H](CCCNC(=N)N)NC(=O)CNC(=O)[C@H](CO)NC1=O	broth turbidity	USA300		11.2 µg/mL
COc1c(NC(=O)c2ccc(NC(=O)c3ccc(NC(=O)[C@H](Cc4c[nH]nn4)NC(=O)c4ccc(NC(=O)/C(C)=C/c5ccc(O)cc5)cc4)cc3)cc2O)ccc(C(=O)O)c1O	broth microdilution	ciprofloxacin-sensitive		32 µg/mL
CC[C@H]1OC(=O)[C@H](C)[C@@H](OC(=O)Cc2cccc(Cl)c2)[C@H](C)[C@@H](O[C@@H]2O[C@H](C)C[C@H](N(C)C)[C@H]2O)[C@](C)(OC)C[C@@H](C)C(=O)[C@H](C)[C@@H](O)[C@]1(C)O		BAA-977		4 µg/mL
CC1C=CC=CC(C)C2C=CC3CC(C)(O)C(Cl)C(C)C3C2C(=O)C(Cl)(Cl)C(=O)C(C)C(=O)O1 (stereo not shown)		MSSA clinical isolate	resistant, PEN, ERY, CLI, TET, SXT	0.1 µg/mL
CCCC(=O)Oc1c(C)c(OC)c2c(/C=C/c3ccccc3)c(CC)c(=O)oc2c1C	microbial growth, broth dilution	ATCC25923		2500 µg/mL
CC[C@H]1OC(=O)[C@H](C)[C@@H](OC(=O)Cc2ccc(OC(F)(F)F)cc2)[C@H](C)[C@@H](O[C@@H]2O[C@H](C)C[C@H](N(C)C)[C@H]2O)[C@](C)(OC)C[C@@H](C)C(=O)[C@H](C)[C@@H](O)[C@]1(C)O		BAA-977		16 µg/mL
CCCCCCCC[N+](C)(C)CCCCCCOc1cc(OCCCCCC[N+](C)(C)CCCCCCCC)cc(OCCCCCC[N+](C)(C)CCCCCCCC)c1.[Br-].[Br-].[Br-]		HA-MRSA ATCC 33591		1 µM
CCCCCCC#Cc1cncc(-c2nnc(SCc3ccc(Cl)cc3)n2C)c1	microbial growth, broth dilution	MRSA		> 64 µg/mL
CCCCCCCCCCn1cc[n+](CCCCOc2cc(OCCCC[n+]3ccn(CCCCCCCCCC)c3)cc(OCCCC[n+]3ccn(CCCCCCCCCC)c3)c2)c1.[Br-].[Br-].[Br-]		CA-MRSA USA300-0114		1 µM
CC[C@H]1OC(=O)[C@H](C)[C@@H](OC(=O)Cc2ccc([N+](=O)[O-])cc2)[C@H](C)[C@@H](O[C@@H]2O[C@H](C)C[C@H](N(C)C)[C@H]2O)[C@](C)(OC)C[C@@H](C)C(=O)[C@H](C)[C@@H](O)[C@]1(C)O		DSM 20231 MSSA		0.1 µg/mL
O=C(Nc1ccc(Oc2ccncc2)cc1)Nc1ccc(Cl)c(C(F)(F)F)c1	microbial growth	NCTC8325		3 µM
CC(C)C[C@@H]1NC(=O)[C@@H](CC(C)C)NC(=O)[C@H](CCN)NC(=O)[C@@H](NC(=O)[C@H](CCN)NC(=O)[C@@H](N)[C@@H](C)O)CCNC(=O)[C@H]([C@@H](C)O)NC(=O)[C@H](CCN)NC(=O)[C@H](CCN)NC1=O	broth microdilution	MSSA ATCC 29213, cation-adjusted Mueller-Hinton broth	20 to 24 h, 37 °C, 0.002% polysorbate 80	> 128 µg/mL
CCCCCCCCCC[N+](C)(C)CCCCCCOc1cc(OCCCCCC[N+](C)(C)CCCCCCCCCC)cc(OCCCCCC[N+](C)(C)CCCCCCCCCC)c1.[Br-].[Br-].[Br-]		HA-MRSA ATCC 33591		2 µM
N=C(N)NCCC[C@@H]1NC(=O)[C@H](CCCNC(=N)N)NC(=O)[C@@H](CCCNC(=N)N)NC(=O)[C@@H](CCCNC(=N)N)NC(=O)[C@@H](C(c2ccccc2)c2ccccc2)NC(=O)[C@H](Cc2c[nH]c3ccccc23)NC(=O)[C@@H](C(c2ccccc2)c2ccccc2)NC1=O		ATCC 29213, MSSA		4 µg/mL
CC[C@H]1OC(=O)[C@H](C)[C@@H](OC(=O)c2ccc([N+](=O)[O-])cc2)[C@H](C)[C@@H](O[C@@H]2O[C@H](C)C[C@H](N(C)C)[C@H]2O)[C@](C)(OC)C[C@@H](C)C(=O)[C@H](C)[C@@H](O)[C@]1(C)O		DSM 20231 MSSA		> 64 µg/mL
CCC(CC)c1cc(CCN2CCCN(C(=O)OC(C)(C)C)CC2)nc(-c2cccnc2)n1	microbial growth, broth dilution	ATCC29213		> 16 µg/mL
